Measured values collected from several papers.
Compare with care: the assays were run in different laboratories.
Organism: Staphylococcus aureus

SMILES | effect on | method | strain | medium | time | temperature | MIC
CC(C)C[C@H](NC(=O)[C@H](CC(N)=O)NC(=O)[C@H](CCCNC(=N)N)NC(=O)[C@@H](CC(C)C)NC(=O)[C@H](Cc1ccccc1)NC(=O)[C@H](CC(=O)O)NC(=O)[C@H](CCCCN)NC(=O)[C@@H](CC(C)C)NC(=O)[C@H](CCCNC(=N)N)NC(=O)[C@H](CCC(N)=O)NC(=O)[C@@H](NC(=O)[C@@H](CC(C)C)NC(=O)[C@H](CCCNC(=N)N)NC(=O)[C@H](CCCCN)NC(=O)[C@H](Cc1ccc(C(F)(F)F)cc1)NC(=O)CN)C(C)C)C(=O)N[C@H](C(N)=O)C(C)C |  | broth microdilution | USA300 LAC, MRSA |  |  |  | 25 µM
CN(C)c1cc(CNC2CCCC2)c(O)c2c1C[C@H]1C[C@H]3[C@H](N(C)C)C(O)=C(C(N)=O)C(=O)[C@@]3(O)C(O)=C1C2=O | microbial growth |  | MRSA |  |  |  | 0.5 µg/mL
c1ccc(CN2CCOCCOCCN(CCCCCCCCCCCCCCN3CCOCCOCCN(CCCCCCCCCCCCCCN4CCOCCOCCN(Cc5ccccc5)CCOCCOCC4)CCOCCOCC3)CCOCCOCC2)cc1 | microbial growth |  |  |  |  |  | 1.5 µM
CNC(CC(C)C)C(=O)NC1C(=O)NC(CC(N)=O)C(=O)NC2C(=O)NC3C(=O)NC(C(=O)NC(C(=O)O)c4cc(O)cc(O)c4-c4cc3ccc4O)C(O)c3ccc(c(Cl)c3)Oc3cc2cc(c3OC2OC(CO)C(O)C(O)C2OC2CC(C)(NC(=O)CCCCCCCC[N+](C)(C)Cc3ccccc3)C(O)C(C)O2)Oc2ccc(cc2Cl)C1O (stereo not drawn) |  | agar dilution | MRSA clinical isolate MRSA3 |  |  |  | 64 µg/mL
CCCCCCCCCc1nc2ccccc2c(=O)n1O |  | broth microdilution | RN6390B |  |  |  | 100 µM
CCC1(C)CCN(Cc2cc(N(C)C)c3c(c2O)C(=O)C2=C(O)[C@]4(O)C(=O)C(C(N)=O)=C(O)[C@@H](N(C)C)[C@@H]4C[C@@H]2C3)CC1 |  |  | MRSA 5, Tet M | 50% human serum |  |  | 32 µg/mL
CC1OCC2OC(OC3C(N)CC(N)C(O)C3OC3OC(CO)C(OC4OC(CN)C(O)C(O)C4N)C3O)C(N)C(O)C2O1 (stereo not drawn) |  | broth microdilution | MRSA isolate AG 042 |  |  |  | 32 µg/mL
CC(C)=CCc1cc([C@@H]2CC(=O)c3c(O)cc(O)c(CC=C(C)C)c3O2)cc(CC=C(C)C)c1O |  |  | ATCC 25923 |  |  |  | 128 µg/mL
CN(C)c1cc(CNCC2CCCCC2)c(O)c2c1C[C@H]1C[C@H]3[C@H](N(C)C)C(O)=C(C(N)=O)C(=O)[C@@]3(O)C(O)=C1C2=O |  |  | MRSA 5, Tet M | 50% human serum |  |  | 8 µg/mL
Oc1c(Br)cc(Br)c2nc3cc(Cl)ccc3nc12 |  | broth microdilution | MRSA 1707 |  | 16 h | 37 °C | 0.08 µM
CC(C)S[C@H]1[C@H](O)[C@@H](N)[C@@H](O[C@H]2[C@H](O[C@@H]3O[C@H](CO)[C@@H](O[C@H]4O[C@@H](CN)[C@@H](O)[C@H](O)[C@H]4N)[C@H]3O)[C@@H](O)[C@H](N)C[C@@H]2N)O[C@@H]1CO |  |  | methicillin-resistant |  |  |  | 4 to 8 µg/mL
S=c1n(CN2CCN(Cc3ccccc3)CC2)nc(C23CC4CC(CC(C4)C2)C3)n1-c1ccccc1 |  | two-fold dilution | IFO 3060 |  | 24 h | 36 °C | 8 µg/mL
C/C(=N\Nc1nc(-c2ccc(Cl)cc2)cs1)c1ccc2c(c1)sc1nc(=O)c(C#N)cn12 |  | broth microdilution |  |  |  |  | < 35 µg/mL
CN1/C(=C/C=C/c2cc(-c3ccccc3)cc(-c3ccccc3)[o+]2)C(C)(C)c2ccccc21 |  | broth dilution | USA300, MRSA |  |  |  | 0.5 µg/mL
CCc1nc(N)nc(N)c1C#CC(C)c1cc(-c2ccncc2)ccc1OC (racemic) |  | broth microdilution | ATCC 43300 |  | 18 h | 37 °C | 0.625 µg/mL

Excerpt of the above:
SMILES | effect on | method | strain | medium | time | temperature | MIC
Oc1c(Br)cc(Br)c2nc3cc(Cl)ccc3nc12 |  | broth microdilution | MRSA 1707 |  | 16 h | 37 °C | 0.08 µM
